Results pooled from the literature.
Each numbered part is a random draw from the data of one study; scales do not carry over between parts.
UniProt P00519, sequence (whole entry, unmodified, looked up): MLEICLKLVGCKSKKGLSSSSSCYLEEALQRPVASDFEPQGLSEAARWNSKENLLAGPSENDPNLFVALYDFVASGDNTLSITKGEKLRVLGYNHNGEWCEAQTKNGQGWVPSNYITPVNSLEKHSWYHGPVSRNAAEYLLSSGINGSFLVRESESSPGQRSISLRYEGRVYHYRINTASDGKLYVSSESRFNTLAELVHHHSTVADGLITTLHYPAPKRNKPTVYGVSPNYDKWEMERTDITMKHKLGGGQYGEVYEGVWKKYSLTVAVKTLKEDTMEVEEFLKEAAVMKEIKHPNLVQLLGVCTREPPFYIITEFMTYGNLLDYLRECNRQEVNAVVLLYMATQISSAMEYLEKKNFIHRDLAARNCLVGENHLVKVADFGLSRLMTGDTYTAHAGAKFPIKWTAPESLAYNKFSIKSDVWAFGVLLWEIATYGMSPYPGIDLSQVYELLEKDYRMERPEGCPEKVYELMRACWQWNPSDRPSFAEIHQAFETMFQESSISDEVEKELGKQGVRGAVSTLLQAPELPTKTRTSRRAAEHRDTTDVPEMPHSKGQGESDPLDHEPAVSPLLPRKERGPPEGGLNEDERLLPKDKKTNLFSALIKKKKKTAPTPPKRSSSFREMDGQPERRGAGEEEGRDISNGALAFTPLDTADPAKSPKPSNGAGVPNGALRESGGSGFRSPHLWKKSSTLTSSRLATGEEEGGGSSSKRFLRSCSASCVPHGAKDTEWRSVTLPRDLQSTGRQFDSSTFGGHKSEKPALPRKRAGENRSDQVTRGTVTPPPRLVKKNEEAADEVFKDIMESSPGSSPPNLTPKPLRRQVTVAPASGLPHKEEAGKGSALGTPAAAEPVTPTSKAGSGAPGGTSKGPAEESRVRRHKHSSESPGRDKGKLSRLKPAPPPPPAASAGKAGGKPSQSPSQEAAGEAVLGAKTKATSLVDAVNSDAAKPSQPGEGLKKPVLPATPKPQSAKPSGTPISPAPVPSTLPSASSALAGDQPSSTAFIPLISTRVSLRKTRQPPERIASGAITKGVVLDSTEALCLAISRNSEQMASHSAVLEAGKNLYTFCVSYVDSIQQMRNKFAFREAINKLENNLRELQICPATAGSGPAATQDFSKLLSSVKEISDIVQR

Set 1
Cell line: mouse MPNST tumor cells
Method: high-content immunofluorescence imaging
Item: nuclear SOX9
Tested at: 10 µM
Time: 12 h
Setting: mean of 2 replicates
Baseline: DMSO control
Reading: higher = more nuclear SOX9
SMILES | nuclear SOX9 intensity
CC1CC(C)(C)N(C(=O)CN2C(=O)c3ccccc3C2=O)c2ccccc21 (stereo not shown) | 96.7 % of DMSO
CCN(CC)CCCC(C)Nc1c2ccc(Cl)cc2nc2ccc(OC)cc12 (stereo not shown) | 255 % of DMSO
CSc1ccc(C(=O)NC2CCCCC2NC(=O)CNC(=O)c2cc(C(F)(F)F)ccc2NC(=O)NC(C)C)cc1 (stereo not shown) | 117 % of DMSO

Set 2
Structure (SMILES): CC(C)n1cnc(-c2ccc(F)cc2)c1-c1ncc(C(=O)Nc2ccc(N3CCN(C)CC3)cc2)[nH]1
Method: phase 2a trial
Host: idiopathic pulmonary fibrosis patients
dose | setting | patients with decreased appetite [%]
30 mg once daily | adverse event grade 1 | 0
dose not given | adverse event grade 4, all dose arms pooled | 0
30 mg once daily | adverse event grade 3 | 0

Set 3
Target: DNA polymerase theta, ATPase domain (POLQ, Homo sapiens, UniProt O75417)
UniProt O75417, sequence (whole entry, unmodified, looked up): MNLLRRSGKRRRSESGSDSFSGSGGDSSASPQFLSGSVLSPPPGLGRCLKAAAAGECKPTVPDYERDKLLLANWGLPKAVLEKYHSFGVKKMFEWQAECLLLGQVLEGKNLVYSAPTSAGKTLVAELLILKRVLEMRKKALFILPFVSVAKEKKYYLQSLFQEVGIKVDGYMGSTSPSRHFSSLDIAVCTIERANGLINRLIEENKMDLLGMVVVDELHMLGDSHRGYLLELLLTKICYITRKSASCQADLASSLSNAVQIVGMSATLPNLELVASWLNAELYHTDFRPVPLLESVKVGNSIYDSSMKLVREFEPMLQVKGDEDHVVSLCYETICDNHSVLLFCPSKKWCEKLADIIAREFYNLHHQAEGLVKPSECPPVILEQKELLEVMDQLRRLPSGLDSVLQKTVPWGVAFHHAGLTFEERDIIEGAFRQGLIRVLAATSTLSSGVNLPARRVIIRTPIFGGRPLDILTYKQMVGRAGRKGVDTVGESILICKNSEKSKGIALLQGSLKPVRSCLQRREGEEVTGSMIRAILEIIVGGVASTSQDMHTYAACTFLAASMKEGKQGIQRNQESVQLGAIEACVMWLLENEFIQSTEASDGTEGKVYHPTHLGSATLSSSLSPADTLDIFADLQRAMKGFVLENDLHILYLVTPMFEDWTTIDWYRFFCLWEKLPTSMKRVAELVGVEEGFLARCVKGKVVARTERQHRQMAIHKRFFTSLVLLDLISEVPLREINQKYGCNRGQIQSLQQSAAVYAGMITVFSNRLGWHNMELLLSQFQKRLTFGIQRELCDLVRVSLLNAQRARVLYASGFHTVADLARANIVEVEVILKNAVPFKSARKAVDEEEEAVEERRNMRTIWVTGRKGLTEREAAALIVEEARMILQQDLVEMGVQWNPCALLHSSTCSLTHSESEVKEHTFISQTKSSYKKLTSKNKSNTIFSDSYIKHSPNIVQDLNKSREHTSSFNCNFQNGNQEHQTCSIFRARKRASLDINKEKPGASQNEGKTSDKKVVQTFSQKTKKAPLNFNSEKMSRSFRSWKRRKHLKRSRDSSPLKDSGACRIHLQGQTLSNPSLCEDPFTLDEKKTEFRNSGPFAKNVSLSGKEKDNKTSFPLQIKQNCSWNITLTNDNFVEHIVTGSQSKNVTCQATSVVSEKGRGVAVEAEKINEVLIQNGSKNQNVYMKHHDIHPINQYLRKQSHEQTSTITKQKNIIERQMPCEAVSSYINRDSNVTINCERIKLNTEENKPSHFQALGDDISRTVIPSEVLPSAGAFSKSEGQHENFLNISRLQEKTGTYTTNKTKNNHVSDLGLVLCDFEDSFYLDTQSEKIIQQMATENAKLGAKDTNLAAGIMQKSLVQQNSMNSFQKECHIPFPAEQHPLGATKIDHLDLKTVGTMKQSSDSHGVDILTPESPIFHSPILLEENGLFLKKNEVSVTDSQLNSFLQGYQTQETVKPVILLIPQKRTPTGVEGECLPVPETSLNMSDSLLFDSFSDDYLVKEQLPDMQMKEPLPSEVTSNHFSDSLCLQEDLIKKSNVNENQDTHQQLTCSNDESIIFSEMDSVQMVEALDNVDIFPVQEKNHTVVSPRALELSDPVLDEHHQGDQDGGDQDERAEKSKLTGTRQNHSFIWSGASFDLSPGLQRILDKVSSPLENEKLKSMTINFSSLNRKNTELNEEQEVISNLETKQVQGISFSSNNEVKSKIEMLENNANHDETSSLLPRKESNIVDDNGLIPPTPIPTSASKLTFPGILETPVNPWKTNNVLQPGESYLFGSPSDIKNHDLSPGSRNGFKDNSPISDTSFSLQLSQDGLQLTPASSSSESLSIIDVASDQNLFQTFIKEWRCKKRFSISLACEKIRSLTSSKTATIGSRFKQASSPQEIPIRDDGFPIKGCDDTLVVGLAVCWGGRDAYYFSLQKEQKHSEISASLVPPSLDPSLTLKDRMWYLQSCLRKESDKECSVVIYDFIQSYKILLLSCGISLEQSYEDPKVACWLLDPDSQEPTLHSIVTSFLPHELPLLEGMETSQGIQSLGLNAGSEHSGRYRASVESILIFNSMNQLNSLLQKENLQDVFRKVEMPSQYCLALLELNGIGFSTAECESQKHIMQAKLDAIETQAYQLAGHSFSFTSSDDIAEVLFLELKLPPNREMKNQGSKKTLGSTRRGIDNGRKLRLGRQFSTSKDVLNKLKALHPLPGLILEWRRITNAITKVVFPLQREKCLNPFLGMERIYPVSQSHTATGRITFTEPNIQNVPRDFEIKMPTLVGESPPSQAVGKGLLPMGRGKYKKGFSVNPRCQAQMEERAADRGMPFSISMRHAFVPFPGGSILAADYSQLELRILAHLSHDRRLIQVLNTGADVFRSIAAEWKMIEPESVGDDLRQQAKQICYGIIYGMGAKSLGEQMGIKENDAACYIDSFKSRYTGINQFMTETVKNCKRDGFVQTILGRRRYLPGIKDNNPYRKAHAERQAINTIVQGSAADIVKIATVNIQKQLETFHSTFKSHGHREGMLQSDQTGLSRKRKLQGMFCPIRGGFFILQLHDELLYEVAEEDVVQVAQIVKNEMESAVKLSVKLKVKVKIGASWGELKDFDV
Observed: enzyme activity
Mode: inhibitor
Tested at: 77 µM
Baseline: untreated
Structure (SMILES) | remaining activity [%]
CCCS(=O)(=O)Nc1ccc(F)c(C(=O)c2c[nH]c3ncc(-c4ccc(Cl)cc4)cc23)c1F | 72.5
N#Cc1cnc2cnc(NCc3cccnc3)cc2c1Nc1ccc(F)c(Cl)c1 | 101
O=C(Nc1ccc2[nH]ncc2c1)C1CCC1 | 99.2

Single results of other studies
Compound | target | method | tested at | setting | baseline | quantity | result
COc1ccc2c(c1)O[C@@H](c1ccc(OC)c(OC)c1)C[C@H]2NC(=O)C1(c2ccc3c(c2)OC(F)(F)O3)CC1 (single isomer, unassigned) | Tyrosine-protein kinase ABL1 (ABL1, Homo sapiens, UniProt P00519, F317I) | KINOMEscan | 1 µM | F317I mutant, phosphorylated | control | remaining binding | 100%

Some of these lines once more (set 3):
Structure (SMILES) | remaining activity [%]
CCCS(=O)(=O)Nc1ccc(F)c(C(=O)c2c[nH]c3ncc(-c4ccc(Cl)cc4)cc23)c1F | 72.5
